Values quoted from earlier work as cited in several papers.
Compare with care: the assays were run in different laboratories. ± gives the spread as reported.

SMILES | target | assay | test system | conditions | scale | measurement | value
O=C(O)C(F)(F)C(F)(F)C(F)(F)C(F)(F)C(F)(F)C(F)(F)C(F)(F)F | OATP2B1 | apical influx | Caco-2 cells | gut, area 1 cm² |  | Jmax | 141 pmol/min
Brc1c(Br)c(Br)c2n[nH]nc2c1Br | CK2 I174A mutant |  |  | concentration not given | baseline: wild-type CK2 over I174A | potency reduction | 2.8 fold
CC1(C)NC(=O)C(Cc2ccc(O)cc2)NC(=O)CNC(=O)C(Cc2ccc3ccccc3c2)NC(=O)C(CCCN=C(N)N)NC1=O (centres unmarked) | human CXCR4 H113A mutant |  |  |  |  | EC50 | 100 µM
CN(C)C(=N)N=C(N)N | OCT1 human |  | human | dose not given, with: verapamil |  | glucose-lowering effect | decreased
O=S(=O)(O)C(F)(F)C(F)(F)C(F)(F)C(F)(F)C(F)(F)C(F)(F)C(F)(F)C(F)(F)F | PPARα (human) | reporter gene, agonist, Gal4 transactivation | human hepatocarcinoma cell line |  | baseline: positive control | efficacy | 66%
N#CC(=Cc1ccc(O)cc1)C(=O)O | monocarboxylate transporter (human) | monocarboxylate transport, inhibitor | human red blood cells |  |  | Ki | 60 µM
CC(=O)NC[C@H]1CN(c2ccc(N3CCOCC3)c(F)c2)C(=O)O1 | mitochondrial ribosome | inhibitor |  |  |  | IC50 | 16 µM
c1c[nH]cn1 | sperm whale metmyoglobin H64A |  |  | pH 7 |  | apparent association rate constant | 1e+06 M⁻¹ s⁻¹
O=C(C1CCCCC1)N1CC(=O)N2CCc3ccccc3[C@H]2C1 | TRPM8, human | agonist |  |  |  | EC50 | ~20 µM
CC=O | ADH1 H48S Saccharomyces cerevisiae | enzyme activity, substrate |  | pH 7.3, 30 °C |  | kcat/Km | 730000 M⁻¹ s⁻¹
CC(C)(O/N=C(\C(=O)N[C@@H]1C(=O)N2C(C(=O)[O-])=C(C[N+]3(CCNC(=O)c4ccc(O)c(O)c4Cl)CCCC3)CS[C@H]12)c1csc(N)n1)C(=O)O | AmpC beta-lactamase | substrate |  |  |  | kcat | 0.08 s⁻¹
COc1ccc2c(c1)[nH]c1c(C)nccc12 | human CDK9/cyclin T | kinase activity, inhibitor |  |  |  | IC50 | 0.72 µM
O=C(Cc1cccs1)N[C@@H]1C(=O)N2C(C(=O)O)=C(/C=C/c3ccc([N+](=O)[O-])cc3[N+](=O)[O-])CS[C@H]12 | NDM-1 metallo-beta-lactamase wild type | substrate |  |  |  | kcat | 15.4 ± 0.4 s⁻¹
CC[C@H]1C[C@H](C)[C@@]2(NC1=O)O[C@@H](C[C@H](O)[C@@H](C)CC/C=C/C=C(\C)[C@@H]1C/C=C/C=C/[C@H](O)[C@H](C)[C@@H](O)[C@@H](CCC(C)=O)C(=O)N[C@@H](C(C)C)C(=O)N[C@@H](Cc3cccc(O)c3)C(=O)N3CCC[C@H](N3)C(=O)O1)[C@H](C)[C@H](O)[C@@H]2C | IMPDH2 | binding, modulator |  | with: PPIA |  | EC50 | 0.0115 µM

Some of these lines once more:
SMILES | target | assay | test system | conditions | scale | measurement | value
CC1(C)NC(=O)C(Cc2ccc(O)cc2)NC(=O)CNC(=O)C(Cc2ccc3ccccc3c2)NC(=O)C(CCCN=C(N)N)NC1=O (centres unmarked) | human CXCR4 H113A mutant |  |  |  |  | EC50 | 100 µM
